Published values pooled from the literature.
Each numbered part is a random draw from the data of one study; scales do not carry over between parts.

Sample 1 — method: protein binding microarray; molecule type: double-stranded DNA, one strand shown; sample: in vitro; concentration: not given; relative to: not given; direction: higher = stronger binding
Target: Histone acetyltransferase KAT6A, winged helix 1, GST fusion (KAT6A, Homo sapiens, UniProt Q92794, residues 1-85)
Setting: 8-mer, flanks averaged, mean of 2 arrays, mostly near background
Construct (chain): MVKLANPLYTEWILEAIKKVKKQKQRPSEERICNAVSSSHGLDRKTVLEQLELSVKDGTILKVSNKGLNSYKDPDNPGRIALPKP
`AAAGGTAG` has an E-score of -0.00162.
With `CACACCGA` the E-score was 0.0816.
The E-score of `AATGCGGG` is reported as 0.17.
`AATACAGC` gave an E-score of -0.117.
The E-score of `ATGCTGTA` is reported as -0.098.
With `TCCTGTAA` the E-score was -0.107.
With `AGATCGTA` the E-score was -0.158.
For `CCGGTCTC`, the E-score was 0.0523.
`ACAGCGCA` has an E-score of 0.222.
`CTTAATTC` gave an E-score of -0.094.
With `CCGATAAC` the E-score was 0.0913.
`GCCCCAGA` has an E-score of -0.0469.
For `CTACTTCC`, the E-score was -0.0802.
With `TAGCGTGA` the E-score was -0.00873.
With `GCACGAGA` the E-score was 0.0499.
`GGCGGACA` has an E-score of 0.245.
For `GCGTCTAC`, the E-score was 0.21.
`CTTACTGA` has an E-score of -0.0576.
`CCACTAGC` gave an E-score of -0.0348.
`ACATGCAC` gave an E-score of -0.0855.

Sample 2 — method: RNA Bind-n-Seq; molecule type: RNA; sample: in vitro; concentration: 200 nM; setting: whole 134-nt RNA, ends assumed; together with: 150 mM LiCl; relative to: input library; direction: higher = stronger binding; each molecule: 7-deaza-guanosine replaces G
Target: Fragile X messenger ribonucleoprotein 1, C-terminal low-complexity region (Fmr1, Mus musculus, UniProt P35922)
For `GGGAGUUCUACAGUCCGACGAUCUGGCCCUGGUGGCAUGCGGGGAGUAAGAGGUGGCCUCAUGGAUCGUGGUGGUCCCGGUGGAAUGUUCAGAGGUGGCCGUGGUGGAGACAGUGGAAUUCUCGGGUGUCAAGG`, the log2 enrichment was 0.3.
`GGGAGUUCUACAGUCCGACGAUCCAAGUCCUGUGCUACACAUCGUAUGUACCGAAUCGGAAAAAAAGGAGGAAAAAGGAAAGUAUUAUGUUACGCCGUUCGGAUCUGCACUUCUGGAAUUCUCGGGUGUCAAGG` has a log2 enrichment of -0.722.
`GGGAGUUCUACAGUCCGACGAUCUAACUUUAGAGGAGGAUCUGAUGGAUAUGGCAGUGGACGUGGAUUUGGGGAUGGCUAUAAUGGGUAUGGAGGAGGACCUGGAGGGGGCAAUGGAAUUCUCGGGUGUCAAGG` has a log2 enrichment of 0.892.
For `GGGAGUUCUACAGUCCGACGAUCUGGCCCUGAUGGCAUGCGGGGAGGAAGAGGUGGCCUCAUGGAUCGUGGUGGUCCCGGUGGAAUGUUCAGAGGUGGCCGUGGUGGAGACAGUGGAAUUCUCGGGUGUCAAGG`, the log2 enrichment was -0.674.
`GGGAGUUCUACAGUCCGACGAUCUAACUUUAGAGGAGGAUCUGAUGGAUAUGGCAGUGGACGUGGAUUUGGGGAUGGCUAUAAUGGGUAUGGAGGAGGACCUGGAGGUCGCAAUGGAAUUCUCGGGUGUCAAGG` gave a log2 enrichment of 0.453.
For `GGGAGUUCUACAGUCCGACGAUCCUCAAGUCCUGUGCUACACAUCGUAUGUACCGAAUCGGGGUGGGUGGGUGGGGAAAGUAUUAUGUUACGCCGUUCGGAUCUGCACUUCCAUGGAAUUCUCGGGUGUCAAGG`, the log2 enrichment was -1.25.
`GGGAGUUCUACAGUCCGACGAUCUCCUCAAGUCCUGUGCUACACAUCGUAUGUACCGAAUCGGUUGGUUGGUUGGAAAGUAUUAUGUUACGCCGUUCGGAUCUGCACUUCCAGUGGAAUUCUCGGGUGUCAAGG` has a log2 enrichment of 0.994.
`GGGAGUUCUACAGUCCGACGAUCUGUGCUACACAUCGUAUGUACCGAAUCGGGGUUUUUUUGGGGUUUUUUUGGGGUUUUUUUGGAAAGUAUUAUGUUACGCCGUUCGGAUCUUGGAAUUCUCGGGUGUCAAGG` has a log2 enrichment of 1.75.
`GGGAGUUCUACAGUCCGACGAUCUGUGCUACACAUCGUAUGUACCGAAUCGGGAAAAAAAGGGGAAAAAAAGGGGAAAAAAAGGGGAAAGUAUUAUGUUACGCCGUUCGGAUCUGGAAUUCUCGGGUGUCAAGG` gave a log2 enrichment of 1.03.
With `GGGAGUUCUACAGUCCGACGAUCCCUGUGCUACACAUCGUAUGUACCGAAUCGGAAAAAAAGGAAAAAAAGGAAAAAAAGGGGAAAGUAUUAUGUUACGCCGUUCGGAUCUGCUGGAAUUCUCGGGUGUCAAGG` the log2 enrichment was -0.881.
For `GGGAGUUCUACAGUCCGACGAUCGCAGGAAGUAAAAACAAAUGGAAAUGCUUCGGAUAGUGGCAGGGGUGGGGGUUGAAAAGGAAAGGGUGGGAUGGGAGUGGGUAAAGAGUUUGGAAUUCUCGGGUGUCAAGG`, the log2 enrichment was 2.03.

Sample 3 — method: EMSA with sequencing; molecule type: double-stranded DNA, one strand shown; sample: in vitro; concentration: 10 and 20 nM; relative to: negative control set to 0; direction: higher = stronger binding
Target: Hepatocyte nuclear factor 3-alpha (Foxa1, Mus musculus, UniProt P35582, residues 1-468, full length assumed)
Setting: whole designed probe, mean of two concentrations, ends assumed
Target sequence (chain): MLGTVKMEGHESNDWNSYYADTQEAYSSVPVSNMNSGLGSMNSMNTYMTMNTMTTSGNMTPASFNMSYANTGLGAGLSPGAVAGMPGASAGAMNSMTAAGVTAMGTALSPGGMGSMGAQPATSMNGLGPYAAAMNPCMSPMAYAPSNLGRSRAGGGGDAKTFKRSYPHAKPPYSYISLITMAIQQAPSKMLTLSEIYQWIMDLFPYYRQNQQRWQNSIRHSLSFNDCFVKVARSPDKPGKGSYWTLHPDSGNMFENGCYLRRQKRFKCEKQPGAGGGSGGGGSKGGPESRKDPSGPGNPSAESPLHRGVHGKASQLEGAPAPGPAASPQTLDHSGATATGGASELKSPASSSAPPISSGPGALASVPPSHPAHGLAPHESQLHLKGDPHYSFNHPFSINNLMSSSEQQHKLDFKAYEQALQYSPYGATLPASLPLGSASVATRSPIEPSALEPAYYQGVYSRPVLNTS
`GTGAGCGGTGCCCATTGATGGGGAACTTATTTTGATAACATCTCCTTTTCATTAGAACCTTCCTCTCTAGTCCCTCTATTTCAATCTTTAATGTAGTGCTTTGTGCTGTTTCATGCCTTTGTTTACATTCTTACACACACACACCCCATTCCTGGAATTTCCCTCCTAGTCGTCTCTGCCTGAAAAAAAACCCTACTAACCCTTTGAGGCCAGCTCAGATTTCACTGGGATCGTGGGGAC` — result for “normalised bound fraction”: 0.468 ratio.
`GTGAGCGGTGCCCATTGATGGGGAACTCGCATATAACTCTTCTACAGAGGAATCTAGACTTGGTGAATGCACCATTGTTCTCCGAAGGGCCCCTCCACCTAAAACGGGGCAGGAACCAATGTAAACACCGGCGTTAGTGGGTCAGGTAAGTGATCCTGAGGCATAGGGGGTGAGGTAGCGTGAGTTAGCATCAGGCTCATATAGAGGACGCAATAAAGATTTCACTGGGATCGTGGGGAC` — result for “normalised bound fraction”: 0.296 ratio.
`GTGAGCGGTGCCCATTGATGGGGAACGGAATAAGGATTGTGACAGTTTTACTGTGCTTATCATTTGTCATTCCAGTGGCATTTCATTGATCCAAAGCCTATCAATAATTCATCTGACTTGTTTACTTTGATAGCCCCAGACACACCTAAAGAGAGATCCTTTCATTTTTTTGAGATTCATGGAATCCAACAAATGATCATTCAGCAGAGCTATGGCAACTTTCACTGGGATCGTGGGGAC` — result for “normalised bound fraction”: 0.419 ratio.
`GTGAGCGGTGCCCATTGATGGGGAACCAAGGAAGGAAGTCATTAACCCACGACCTTGGGTGTGCTACTTTGTACCACTCACCACATGTTAAAACTCTTCTCTCACTATAGGGTAATTTCTTGTTTACTTAAATCCCCAGTTACTTATTCAAAATTTATTCAAAAATATGTGTATTAATTTCTCACTGTGGGTCAGGGACTCTGATAAGGCAGAACCTCTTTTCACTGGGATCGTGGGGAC`: “normalised bound fraction” 0.451 ratio.
`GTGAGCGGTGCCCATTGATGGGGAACTTCCATCGTTTGCTTTTACTGTAAAGTAATATTAAGGAATTAGCCAACAGTATTTACTGAGTGACTGGTATTTACCTCTGATCCTTTGAGGACTTGTTTGCATTTCAGCTCAGGTTTTCTGACTAAGGAGATAAAAACATCTCCTGGACTATTTATTTTTTTCCGTGACCTAACCCAAGGACTTTGCACTGGGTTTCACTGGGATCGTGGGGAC`: “normalised bound fraction” 0.413 ratio.
Under “normalised bound fraction”, `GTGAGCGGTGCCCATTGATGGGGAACTCATTCGGTGAATATTGCTAATTACTAGAGCCTTCATGGGCAAAGGACAAGGTGGCTGGGCACTGGCCAACTGCCAGCTGTTTCTGGGCCAAAGCAAACAACTTGTGCCTTAGAATGCACTGGTATGGCTGGTGACAACCCCACCAATCCCTAGAGCTCCACTCCAGCCTCTCAATGGAAAACTTTTCTCCTGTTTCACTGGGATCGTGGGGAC` is recorded as 0.315 ratio.

Sample 4 — method: protein-binding microarray; molecule type: double-stranded DNA, one strand shown; sample: in vitro; concentration: 250 nM; setting: 60-bp whole probe; together with: salmon DNA 0.4 mg/ml; relative to: random background probes; direction: higher = stronger binding; constant ends, left off below: GCCTAGCAC … GTCTTGATTCGCTTGACGCTGCTG
Target: Interferon regulatory factor 5, full length, phosphomimetic (IRF5, Homo sapiens, UniProt Q13568-2, residues 1-514, K96S/S451D/S453D/S456D/S462D)
`TTAAGACTGGACTTTCGGTTAGTGCTA` has a log fluorescence of 9.83 z-score.
For `TTCGGACTGCTACTGCTTTAGTGCTAG`, the log fluorescence was -0.264 z-score.
With `ATTTGTAAGTACATTAACTCGTGCTAG` the log fluorescence was 0.328 z-score.
For `TTAGAACTGGGGTTTCGATAAGTGCTA`, the log fluorescence was 4.51 z-score.
With `TTAGGCTCCGGTTTCGGTTAGTGCTAG` the log fluorescence was 8.29 z-score.
With `TTTTTTTTTTTTTACTTCGGGTGCTAG` the log fluorescence was 1.28 z-score.
With `ATCGATTTCTTCCCTGTGAAAGTGCTA` the log fluorescence was 1.8 z-score.
`GACGGTATCGGGACTGGAGACGTGCTA` gave a log fluorescence of 1.13 z-score.
For `TTAGAACTGGCGTATCGATTAGTGCTA`, the log fluorescence was 1.94 z-score.
The log fluorescence of `GACGATCTCAGACTGGTGACGTGCTAG` is reported as -0.358 z-score.
`GACGATATCAGAATCGAGACGTGCTAG` has a log fluorescence of 0.888 z-score.
`TTAGGCTTCGACTATCGGTTAGTGCTA` has a log fluorescence of 6.18 z-score.
For `TTAGCTTTCAGTATCGATTAGTGCTAG`, the log fluorescence was 9.75 z-score.
`GACGGTTCCGGTTTGGGGACGTGCTAG` gave a log fluorescence of 0.857 z-score.
`TTATGACTGGGTATCGGTTAGTGCTAG` gave a log fluorescence of 4.44 z-score.
With `GACGATATCCGTATCGAGACGTGCTAG` the log fluorescence was 1.42 z-score.
`TTAGATTCCGGGTTTCGATTAGTGCTA` gave a log fluorescence of 6.76 z-score.
For `AACGATTTCAGTTCCGAGACGTGCTAG`, the log fluorescence was 1.53 z-score.
The log fluorescence of `TCACCATCCTGTATGGAACTGTGCTAG` is reported as 0.0158 z-score.
With `TTAGGACTTGGGACTGGGTTAGTGCTA` the log fluorescence was -0.418 z-score.
`CTTGCTCTTGTTTTCACAGGGTGCTAG` gave a log fluorescence of 0.692 z-score.
For `TTAGGTTTCCTACGGCTTTAGTGCTAG`, the log fluorescence was 0.213 z-score.
